Experimental data from different studies.
Protocols differ between the studies behind these lines. Several values in a cell are separate wells, animals, samples, runs or records. ± marks the error that the study gave.

| Compound | test | test system | conditions | how to read | measurement | value |
| --- | --- | --- | --- | --- | --- | --- |
| c1cc2ccc3ccc4ccc5cccc6c(c1)c2c3c4c56 | – | fresh water | 12 (unit not given), 20 °C, S100 sampler, 100 µm | – | log K(PDMS-water) | 5.56 ± 0.05 |
| CCOc1cc(Oc2ccc(C(F)(F)F)cc2Cl)ccc1[N+](=O)[O-] | – | rat, female | 125 mg/kg, 4 days | – | final body weight | 95.6 ± 3.3 g |
| CO[C@H]1C[C@@H]2CC[C@@H](C)[C@@](O)(O2)C(=O)C(=O)N2CCCC[C@H]2C(=O)O[C@H]([C@H](C)C[C@@H]2CC[C@@H](OC(=O)NCCOCCOCCOCCOCCOCCOCCOCCOCCC(=O)N3CCc4cc(Cn5nc(-c6ccc7oc(N)nc7c6)c6c(N)ncnc65)ccc4C3)[C@H](OC)C2)C[C@@H](O)[C@H](C)/C=C(\C)[C@@H](O)[C@@H](OC)C(=O)[C@H](C)C[C@H](C)/C=C/C=C/C=C/1C | – | patients with advanced solid tumours | intravenous, 10 mg weekly, grade 3 or higher | – | decreased appetite leading to dose reduction | 0% |
| CSCC[C@@H]1NC(=O)[C@H](Cc2c[nH]c3ccccc23)NC(=O)[C@@H](NC(=O)CCNC(=O)[C@H](CCC(N)=O)NC(=O)[C@@H]2CCCN2C(=O)[C@@H]2CCCN2C(=O)[C@H](CCCNC(=N)N)NC(=O)[C@H](CCCNC(=N)N)NC(=O)[C@H](CCCNC(=N)N)NC(=O)[C@H](CCC(N)=O)NC(=O)[C@H](CCCNC(=N)N)NC(=O)[C@H](CCCNC(=N)N)NC(=O)[C@H](CCCCN)NC(=O)[C@H](CCCCN)NC(=O)[C@H](CCCNC(=N)N)NC(=O)CN)CSSC[C@@H](C(=O)O)NC(=O)[C@H]([C@@H](C)O)NC(=O)CNC(=O)[C@H](CC(C)C)NC(=O)[C@H](Cc2c[nH]cn2)NC(=O)[C@H](CCCNC(=N)N)NC(=O)[C@@H]2CCCN2C(=O)[C@H](CO)NC1=O | competitive EIA | human, plasma | 35 mg, median and quartile range | – | elimination rate constant | 9.17e-05 ± 0.000108 s⁻¹ |
| CC(C)CC(=O)OC[C@H]1O[C@@](C#N)(c2ccc3c(N)ncnn23)[C@H](O)[C@@H]1O | – | Sprague-Dawley rat, both sexes, urine and faeces | 80 mg/kg, time not given | relative to: dose | recovery in urine and faeces | 0.0657% |
| CC(C)C[C@@H]1NC(=O)CNC(=O)[C@H](CC(N)=O)NC(=O)[C@H](CCCCN)NC(=O)[C@H]([C@@H](C)O)NC(=O)[C@@H]2CSSC[C@@H]3NC(=O)[C@H]([C@@H](C)O)NC(=O)CNC(=O)CNC(=O)[C@H](C(C)C)NC(=O)[C@@H]4CSSC[C@H](NC(=O)[C@H]([C@@H](C)O)NC(=O)[C@H](CSSC[C@H](NC(=O)[C@H](C(C)C)NC(=O)[C@@H]5CCCN5C1=O)C(=O)NCC(=O)N[C@@H](CCC(=O)O)C(=O)N[C@@H]([C@@H](C)O)C(=O)N4)NC(=O)CNC(=O)[C@@H]1CCCN1C(=O)[C@H]([C@@H](C)O)NC(=O)[C@H](CC(N)=O)NC3=O)C(=O)N[C@@H](CO)C(=O)N[C@@H](Cc1c[nH]c3ccccc13)C(=O)N1CCC[C@H]1C(=O)N[C@@H](C(C)C)C(=O)N2 | HPLC | ammonium bicarbonate | 180 µM, 7 days, pH 9.0, 25 °C, deamidation stability | – | remaining peptide | 96 ± 0.7% |
| CC/C(=C(\c1ccccc1)c1ccc(OCCN(C)C)cc1)c1ccccc1 | – | CD-1 mouse, male, lung | intraperitoneal, 3 mg/kg | – | elimination rate constant | 2.9e-05 s⁻¹ |
| O=[N+]([O-])c1cc2c3c(ccc2c2ccccc12)[C@@H](O)[C@H](O)C=C3 | item: others mammary tumours | female Sprague-Dawley rats | intramammary, 12.3 µmol per rat, up to 32 weeks | – | tumours per rat | 0 |
| COc1ccnc(C(=O)N[C@H]2COC(=O)[C@H](Cc3ccccc3)[C@@H](OC(=O)C(C)C)[C@H](C)OC2=O)c1OCOC(=O)C(C)C | soil adsorption | clay loam soil | pH 7.2, organic carbon 4.4 % | – | KFoc | 3110 mL/g |
| Clc1ccc(Cl)c(-c2cccc(Cl)c2Cl)c1 | – | polyethylene-water partitioning | PCB compilation | relative to: maximum over minimum K | literature range factor | 1.3 |
| CC(=O)c1c(C)c2cnc(Nc3ccc(C4CCN(CCS(C)(=O)=O)CC4)cn3)nc2n(C2CCCC2)c1=O | – | human patients, plasma | oral, 100 mg twice daily, day 1 single dose, added: fulvestrant | – | elimination rate constant | 3.06e-05 s⁻¹ |
| C[C@@H]1NC(=O)[C@H](CCCCNC(=O)CO/N=C/C(=O)NCCCC[C@@H]2NC(=O)[C@@H](Cc3ccccc3)NC(=O)[C@H](CC(=O)O)NC(=O)CNC(=O)[C@H](CCCNC(=N)N)NC2=O)NC(=O)CNC(=O)[C@@H]2CCCN2C(=O)[C@H](CCCCNC(=O)CO/N=C/C(=O)NCCCC[C@@H]2NC(=O)[C@@H](Cc3ccccc3)NC(=O)[C@H](CC(=O)O)NC(=O)CNC(=O)[C@H](CCCNC(=N)N)NC2=O)NC(=O)[C@H](CCCCNC(=O)CCNC(=O)CCNC(=O)CCNC(=O)[C@H](CCCCN)NC(=O)[C@H](Cc2ccccc2)NC(=O)CNC(=O)CN2CCCNCCNCCCNCC2)NC(=O)[C@H](CCCCNC(=O)CO/N=C/C(=O)NCCCC[C@@H]2NC(=O)[C@@H](Cc3ccccc3)NC(=O)[C@H](CC(=O)O)NC(=O)CNC(=O)[C@H](CCCNC(=N)N)NC2=O)NC(=O)CNC(=O)[C@@H]2CCCN2C(=O)[C@H](CCCCNC(=O)CO/N=C/C(=O)NCCCC[C@@H]2NC(=O)[C@@H](Cc3ccccc3)NC(=O)[C@H](CC(=O)O)NC(=O)CNC(=O)[C@H](CCCNC(=N)N)NC2=O)NC1=O [copper-64 labelled] | – | normal mice, liver | intravenous, 0.74 MBq, 3 h post-injection | – | tissue uptake | 35.2 ± 1.87 %ID/g |
| COc1cc(C2C3=C(COC3=O)N(CCO)c3cc4c(cc32)CCC4)cc(OC)c1OC (centres unmarked) | – | female Sprague-Dawley rats | intraperitoneal, 200 mg/kg, 24 h, single dose, mean | – | body weight | 200 g |
| CCCCCCCC(=O)N[C@@H](CCCCN)C(=O)N[C@@H](CCCCN)C(=O)N[C@@H](C)C(=O)N[C@@H](CC(C)C)C(=O)N[C@@H](CCCCN)C(=O)N[C@@H](CC(C)C)C(=O)N[C@@H](C)C(=O)N[C@@H](CCCCN)C(=O)N[C@@H](CCCCN)C(=O)N1CCC[C@H]1C(=O)N[C@@H](CC(C)C)C(=O)N[C@@H](CCCCN)C(=O)N[C@@H](CC(C)C)C(=O)N[C@@H](CC(C)C)C(=O)N[C@@H](CCCCN)C(N)=O | – | ICR mouse, female, whole blood | intravenous bolus, 1 mg/kg | – | Tmax | 4.8 min |
| CC[C@H](C)[C@@H]1NC(=O)[C@@H]2CSSC[C@H](NC(=O)[C@H](CCCNC(=N)N)NC(=O)[C@@H]3CSSC[C@H](NC1=O)C(=O)N[C@@H]([C@@H](C)O)C(=O)N[C@@H](CCCNC(=N)N)C(=O)NCC(=O)N[C@@H](Cc1ccccc1)C(=O)N3)C(=O)N[C@@H](CC(C)C)C(=O)N[C@H]1CSSC[C@H](NC(=O)[C@H](C(C)C)NC(=O)CNC(=O)[C@H](CCCNC(=N)N)NC(=O)[C@H](CCCNC(=N)N)NC1=O)C(=O)N[C@@H](CCCNC(=N)N)C(=O)N2 | – | Sprague-Dawley rat, male, lung | 5 mg/kg, perivascular, peribronchiolar | direction not given | lung eosinophilic infiltration score | 1 to 2 |
| Nc1ncnc2c1ncn2[C@@H]1O[C@@H]2COP(=O)([S-])O[C@@H]3[C@H](O)[C@@H](COP([O-])(=S)O[C@H]2[C@H]1O)O[C@H]3n1cnc2c(N)ncnc21.[Na+].[Na+] (some centres unmarked) | – | non-tumor-bearing mice, serum | intravenous, 1 mg/kg, toxicity study | – | BUN | 8.2 ± 1.85 mmol/L |
| C[C@]1(CO)Cc2ncn(-c3ccc(C#N)c(Cl)c3)c2C(=O)O1 | – | healthy humans | oral, 10 mg | relative to: fasted | AUC0–tz ratio fed over fasted | 103% |
| N=C(N)NCCC[C@@H](NC(=O)[C@@H](N)Cc1ccccc1)C(=O)N[C@@H](Cc1ccccc1)C(=O)N[C@@H](CCCCN)C(N)=O | LC-MS | human | 15 mg, 23.83 h | – | median fraction excreted in urine | 2.35% |
| Cc1cc(C)c(CNC(=O)c2cc(Cl)c3c(c2C)O[C@@](C)([C@H]2CC[C@H](N(C)C)CC2)O3)c(=O)[nH]1 | – | relapsed/refractory NHL patients | dose not given, trial, safety set, all TEAEs grade 5 | – | incidence of tumour lysis syndrome | 0% |
| c1ccc2c(c1)-c1cccc3c1c-2cc1ccccc13 | – | fresh water | 12 (unit not given), 20 °C | – | log K(PDMS-water) | 5.18 ± 0.04 |
| Clc1ccc(Cl)c(-c2cc(Cl)ccc2Cl)c1 | – | Sprague Dawley rat, thymus | intraperitoneal, 1 mg/kg | – | relative organ weight | 0.0027 g/g body weight |
| C[C@@H](NC(=O)N1C(=O)[C@H](Cc2ccnc(N)c2)[C@H]1C(=O)O)C1CCCCC1 | – | healthy adult Chinese volunteers | continuous intravenous infusion, 1.0 mg/kg/h, 5-day infusion, CTCAE 5.0 grading | – | incidence of elevated neutrophil | 0% |
| COc1cccc(Oc2ccccc2NC(=O)CNC(=O)c2cccc3ccccc23)c1 | – | esterase-deficient SCID mice, male | oral, 100 mg/kg/day, 14 days, toxicity study | – | serum creatinine | 0.2 mg/dL and 0.1 mg/dL |
| Nc1ccc2cc3ccc(N)cc3nc2c1 | – | male CD-1 mouse, plasma | intravenous, 15 mg/kg | – | AUC(0-t) | 730 ng·h/mL |
| CN1CCN(c2ccc(Nc3nccc(-c4ccccc4)n3)cc2C(F)(F)F)CC1 | – | zebrafish embryos | 50 µM, 5 d | – | toxicity | 0% |
| NCCCC[C@@H]1NC(=O)[C@@H](Cc2c[nH]c3ccccc23)NC(=O)[C@H](c2ccccc2)NC(=O)[C@@H]2C[C@@H](OC(=O)NCCN)CN2C(=O)[C@H](Cc2ccccc2)NC(=O)[C@H](Cc2ccc(OCc3ccccc3)cc2)NC1=O | – | healthy volunteers, female | 600 µg twice daily, 0.0 h, post hoc | – | placebo-corrected QTcF change | 3.6 ms |
| COc1cc2c(Oc3ccc4[nH]c(C)cc4c3F)ccnc2cc1OCC1(N)CC1 | – | paediatric recurrent refractory sarcoma | 10 mg | – | grade 1 or 2 Rash | 0% |
| CN[C@@H](C)C(=O)N[C@H]1CN(S(=O)(=O)c2cccc(S(=O)(=O)N3CC[C@H]4CC[C@@H](C(=O)NC(c5ccccc5)c5ccccc5)N4C(=O)[C@@H](NC(=O)[C@H](C)NC)C3)c2)CC[C@H]2CC[C@@H](C(=O)NC(c3ccccc3)c3ccccc3)N2C1=O | – | patients with advanced solid tumours | 20 mg, phase I monotherapy | – | treatment-related pruritus incidence | 20% |
| O=C(O)CCCOc1ccc(F)cc1-c1cc(-c2ccccc2C(F)(F)F)n(-c2ccccc2)n1 | item: Fbg | Crl:CD(SD) rats, female, blood | iv, 25 µg/kg, 14 days | – | blood chemistry | 197 mg/dL |

Repeated from above:
| Compound | test | test system | conditions | how to read | measurement | value |
| --- | --- | --- | --- | --- | --- | --- |
| CCCCCCCC(=O)N[C@@H](CCCCN)C(=O)N[C@@H](CCCCN)C(=O)N[C@@H](C)C(=O)N[C@@H](CC(C)C)C(=O)N[C@@H](CCCCN)C(=O)N[C@@H](CC(C)C)C(=O)N[C@@H](C)C(=O)N[C@@H](CCCCN)C(=O)N[C@@H](CCCCN)C(=O)N1CCC[C@H]1C(=O)N[C@@H](CC(C)C)C(=O)N[C@@H](CCCCN)C(=O)N[C@@H](CC(C)C)C(=O)N[C@@H](CC(C)C)C(=O)N[C@@H](CCCCN)C(N)=O | – | ICR mouse, female, whole blood | intravenous bolus, 1 mg/kg | – | Tmax | 4.8 min |
| CC[C@H](C)[C@@H]1NC(=O)[C@@H]2CSSC[C@H](NC(=O)[C@H](CCCNC(=N)N)NC(=O)[C@@H]3CSSC[C@H](NC1=O)C(=O)N[C@@H]([C@@H](C)O)C(=O)N[C@@H](CCCNC(=N)N)C(=O)NCC(=O)N[C@@H](Cc1ccccc1)C(=O)N3)C(=O)N[C@@H](CC(C)C)C(=O)N[C@H]1CSSC[C@H](NC(=O)[C@H](C(C)C)NC(=O)CNC(=O)[C@H](CCCNC(=N)N)NC(=O)[C@H](CCCNC(=N)N)NC1=O)C(=O)N[C@@H](CCCNC(=N)N)C(=O)N2 | – | Sprague-Dawley rat, male, lung | 5 mg/kg, perivascular, peribronchiolar | direction not given | lung eosinophilic infiltration score | 1 to 2 |
| Nc1ncnc2c1ncn2[C@@H]1O[C@@H]2COP(=O)([S-])O[C@@H]3[C@H](O)[C@@H](COP([O-])(=S)O[C@H]2[C@H]1O)O[C@H]3n1cnc2c(N)ncnc21.[Na+].[Na+] (some centres unmarked) | – | non-tumor-bearing mice, serum | intravenous, 1 mg/kg, toxicity study | – | BUN | 8.2 ± 1.85 mmol/L |
| C[C@]1(CO)Cc2ncn(-c3ccc(C#N)c(Cl)c3)c2C(=O)O1 | – | healthy humans | oral, 10 mg | relative to: fasted | AUC0–tz ratio fed over fasted | 103% |
